Experimental data gathered from unrelated publications.
Every numbered part comes from another study and shows a few of its results, in no order. Substitutions count along the parent as printed.

Block 1
Target: UBE2U UBC core domain (UniProt Q5VVX9)
Method: yeast two-hybrid
Sample: yeast
Setting: mostly zero background
Baseline: not given
Reading: higher = stronger interaction
Endpoint: lacZ reporter activity
B1: TRIM5 RING domain (UniProt Q9C035); chain ILVNVKEEVTCPICLELLTQPLSLDCGHSFCQACLTANHKKSMLDKGESSCPVCRISYQPENIRP
B2: TRIM5 RING domain (UniProt Q9C035); chain LREVKLSPEGQKVDHCARHGEKLLLFCQEDGKVICWLCERSQEHRGHHTFLTEEVAREYQVKL
B3: TRAF5 RING domain (UniProt O00463); chain FVERLEERYKCAFCHSVLHNPHQTGCGHRFCQHCILSLRELNTVPICPVDKEVIKSQEVFK
Residues (chain): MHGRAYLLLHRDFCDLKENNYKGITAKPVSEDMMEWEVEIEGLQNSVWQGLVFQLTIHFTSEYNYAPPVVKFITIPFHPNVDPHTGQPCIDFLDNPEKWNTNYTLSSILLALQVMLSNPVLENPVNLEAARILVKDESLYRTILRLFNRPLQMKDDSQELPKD
ASLPTSEEDLCPICYAHPISAVFQPCGHKSCKACINQHLMNNKDCFFCKTTIVSVEDWE (RNF123 RING domain (UniProt Q5XPI4)): 4890
FQGDVDEDLICPICSGVLEEPVQAPHCEHAFCNACITQWFSQQQTCPVDRSVVTVAHLRP (RNF41 RING domain (UniProt Q9H4P4)): 6190
B1 (TRIM5 RING domain): 0
B2 (TRIM5 RING domain): 0
B3 (TRAF5 RING domain): 0

Block 2
Target: RNA binding protein fox-1 homolog 2, RRM domain, GST-SBP tag (RBFOX2, Homo sapiens, UniProt O43251-10, residues 100-194)
Method: RNA Bind-n-Seq
Form: RNA
Sample: in vitro
Concentration: 365 nM
Setting: natural RNA segment, single round, ends assumed
Baseline: no-protein control
Reading: higher = stronger binding
Endpoint: RBNS enrichment (R)
Construct (chain): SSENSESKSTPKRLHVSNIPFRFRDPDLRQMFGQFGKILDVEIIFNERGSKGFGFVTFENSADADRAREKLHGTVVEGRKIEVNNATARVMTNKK
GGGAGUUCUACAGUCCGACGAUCUGGCUAGCAGCUAUCAGUAUUAGCGAGGUGUCUUGCCGAUAUCAGAGUCAGUGUGUCAUUUCAGUUUAACUGGAUGAACUGUCAAAUAAAGAAAUGCAGAAUGAAAACAAUGGAAUUCUCGGGUGCCAA: 0.645
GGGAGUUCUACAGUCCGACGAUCCAGGCUGGAGUCAGAAAUGUUUCCCAAAGAGUGAGUCUUUUGCUUUUGGCAAAACGCUACUUAAUCCAAUGGGUUCUGUACAGUAGAUUUUGCAGAUGUAAUAAACUUUAUGGAAUUCUCGGGUGCCAA: 0.505
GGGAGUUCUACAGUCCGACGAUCACUGGAGUUAAUUGCCCAUUUGGGCUCUUUGUAUAAUUAUGGCAAAGUAGACAUUUAUGUUCUAAUUAAUAUGAUUACAGAGAAGGCUUUUUCUCAGGUCAGGCUUUUCAUGGAAUUCUCGGGUGCCAA: 0.262
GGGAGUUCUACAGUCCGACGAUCCCUGCUGUGGGAAGAGGGUACUGAAUGGGCAAGAGCCUACAAGGUUCAGUCUAUGAUGGAGAGGGGACCAGGUCAAGGGCCUCAGCCAGAGCAGACCAGGCUGCCUCAGAUGGAAUUCUCGGGUGCCAA: 0.329
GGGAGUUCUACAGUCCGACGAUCUCGCCUGCUUUGUGCCAGGCUGGUCUGUGUCCCCCUGAGCCUCAUGGCCUACGGUGAUGCCUGUGGUGAUGCCAGGUUGUCCGCUCACAUGAGUCCCAUCUGUAAAUUCUUGGAAUUCUCGGGUGCCAA: 0.286
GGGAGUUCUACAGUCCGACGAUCAAAUUGACUAAAUAAGGUCAAGGAUAAUGUUUUUCAUUGAUUAACCAUUUAUUAUACAUAUAAUCUAUUGAAUAUAAAAAGAUUCACCUUGAAAUAAUAUUUGACUAUAUUGGAAUUCUCGGGUGCCAA: 0.558
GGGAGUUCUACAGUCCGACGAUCUGAUCAUAUAUAUGUGUGUGUGUAUGUAUAUGUAUGUGUGUGUGUGUAUAUAUAUAUAUAUAUAUAUAUAUAGCCACACAUGAUCAUACUUAUAUAUGAUGUUUCCAUAUUGGAAUUCUCGGGUGCCAA: 1.91
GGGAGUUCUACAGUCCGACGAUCACCUCUCUAUACUGGAUACUGUAACUAUGAGAAUAAAAUAUAGAAGUGACAGACGUCUACAGCAUUCCAGCUAUGAUCAUGUUGAUUCUGAAAUCAUGUAAAUUAAGAUUUGGAAUUCUCGGGUGCCAA: 0.449
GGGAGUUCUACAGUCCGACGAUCAGCCCCUGAGAACCCCAUCUUCCCCUGGUUCUCUUGCCCACUCCCCUGCUGGGGCUCCUUCCUGGCACUGAGGAGGGGCGCUCCCAAUGCUGUGAGGCAGCGGGGAGGGAUGGAAUUCUCGGGUGCCAA: 0.324
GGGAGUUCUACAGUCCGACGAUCGUUUGAAUGUGUAAAUGGGUGAUCUCUCUGAGUCCUGGCAACAUCCAGCAAAACUACUGCUUAUUCUCCAAAGAAUAUUGGGAGCUCUCAAUCCUCGGUGAUAUGGGAAAUGGAAUUCUCGGGUGCCAA: 0.67
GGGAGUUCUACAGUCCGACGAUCAAAAACAAAACAAAACAAAAAAAUCCUCCUAGAAACCAGAAGUAGAGAGAUUUCUGCUAAUUCUGGGCUUUGAAGCGUACGUCUUUUGAGGGGGCAUUUUGAUGUGGUCCUGGAAUUCUCGGGUGCCAA: 0.405
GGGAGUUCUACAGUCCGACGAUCGCAUCCACAUGGCAGCUCACAACCAUCUGGAACUCCAGUUCCAGAGAAUCCAAUGCCCUUCUGGCCUUUGUGGAAACUUUCAUAUGUAUGGUAUACAUGCAUACACUACAUGGAAUUCUCGGGUGCCAA: 0.317

Block 3
Target: CCNE1, cyclin fold, Cln2 fusion (human)
Method: yeast growth competition, sequencing
Sample: yeast
Setting: strong parent motif
Baseline: not given
Reading: higher = stronger binding
Endpoint: normalised enrichment score
Parent: CDC25A docking peptide (human); PPHRRRLLFACSP
F9D: -0.0138
P2Y: 1.13
R5K: 1.12
A10V: 1.21
R4D: 0.683
F9N: 0.796
A10T: 2.02
R6G: 0.483
R6T: 0.881
P2L: 0.438
S12E: 1.95
R6M: 1.35
L8T: 2.62
C11N: 1.14
F9G: 1.29
P2D: 0.65
S12H: 0.734

Block 4
Target: JUNB, bZIP domain (human)
Method: DHFR protein complementation
Sample: yeast
Setting: single substitutions, most at no-binding floor
Baseline: wild-type JUN-FOS pair
Reading: higher = stronger binding
Endpoint: binding fitness
Parent: JUN, bZIP domain (human); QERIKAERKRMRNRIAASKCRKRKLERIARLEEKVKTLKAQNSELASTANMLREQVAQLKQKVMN; partner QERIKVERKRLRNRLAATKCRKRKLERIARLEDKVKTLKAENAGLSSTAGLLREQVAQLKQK
V56S: -1.51 natural log
M51P: -1.5 natural log
A57K: -1.1 natural log
V56T: -1.53 natural log
A46N: -1.36 natural log
L45P: -1.46 natural log
K36W: -1.46 natural log
T48A: -1.13 natural log
M51C: -1.27 natural log

Block 5
Target: Histone acetyltransferase KAT6A, both winged helices, GST fusion (KAT6A, Homo sapiens, UniProt Q92794, residues 1-181)
Method: protein binding microarray
Form: double-stranded DNA, one strand shown
Sample: in vitro
Concentration: not given
Setting: 8-mer, flanks averaged, mean of 2 arrays, mostly near background
Baseline: not given
Reading: higher = stronger binding
Endpoint: E-score
Residues (chain): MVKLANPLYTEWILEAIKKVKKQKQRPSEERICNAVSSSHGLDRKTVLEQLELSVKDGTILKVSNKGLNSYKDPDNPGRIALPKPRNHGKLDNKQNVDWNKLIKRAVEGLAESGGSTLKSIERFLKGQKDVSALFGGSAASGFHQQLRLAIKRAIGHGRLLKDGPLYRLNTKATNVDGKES
CCGTATCC: 0.254
AAGTCCGG: 0.0627
TACCACCA: -0.195
CTGCCATA: 0.0106
GCCAGCAA: -0.149
AACACAAA: -0.208
AGGAGCAG: -0.079
GTCAACCA: -0.137
ACAGGGCT: -0.0788
AATTAATG: -0.036
TCGTTGAA: -0.169
CAGAGGAC: -0.103
CAGCGAAC: -0.0855
GAATTGCC: 0.101
CTAAGGGC: -0.118
GAGGTTTA: 0.0126
ATTAGAAC: 0.044
ACACGGGC: 0.205

Block 6
Target: ABI1, truncated, D143A, DHFR fusion (Arabidopsis thaliana)
Method: DHFR PCA, deep sequencing
Sample: yeast
Setting: methotrexate growth selection, single substitutions
Together with: (+)-ABA 2500 µM
Baseline: wild-type fitted maximum
Reading: higher = stronger binding
Endpoint: relative binding score
Parent: PYL1, truncated, DHFR fusion (Arabidopsis thaliana); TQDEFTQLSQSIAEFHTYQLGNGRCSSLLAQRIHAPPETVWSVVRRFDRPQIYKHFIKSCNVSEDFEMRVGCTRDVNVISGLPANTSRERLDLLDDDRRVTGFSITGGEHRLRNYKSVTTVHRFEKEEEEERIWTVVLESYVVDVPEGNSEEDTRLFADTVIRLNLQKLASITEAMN
S42Q: 109%
L28Y: 91.8%
N149M: 65%
S117H: 60.1%
L164Y: 95.1%
F103T: 52%
R45S: 93.6%
G21V: 96.2%
E127A: 94.7%
E139H: 93%
Y115G: 6.34%
S104L: 80.7%
T86L: 92.3%

A few entries again (block 6):
S42Q: 109%
L28Y: 91.8%
N149M: 65%
S117H: 60.1%
L164Y: 95.1%
F103T: 52%
R45S: 93.6%
G21V: 96.2%
E127A: 94.7%
E139H: 93%
Y115G: 6.34%
